Measurements gathered from unrelated publications.
Every numbered part comes from another study and shows a few of its results, in no order.

Block 1 — method: universal PBM; molecule type: double-stranded DNA, one strand shown; sample: in vitro; concentration: not given; reading: higher = stronger binding
Target: Sal-like protein 4, full length isoform B (SALL4, Homo sapiens, UniProt Q9UJQ4-2, residues 1-616)
Setting: 8-mer, flanks averaged, mean of replicates
| Strand | E-score |
| --- | --- |
| ATTTGGGA | 0.0931 |
| AGTGTGAC | 0.0321 |
| ACTGAACT | 0.034 |
| CTACAAAA | 0.0946 |
| AACGCGGG | -0.317 |
| CCAATTCA | 0.169 |
| ATCTAAGG | 0.104 |
| GTCATCCA | -0.0761 |
| GCAGCGGC | -0.346 |
| ATTGCGCC | -0.00068 |
| AAAAGATC | 0.0409 |
| GAGTGAAC | -0.161 |
| AGTTGTGG | 0.0838 |
| ATGTGGCC | -0.158 |
| ACTAACCT | 0.0051 |
| AGATTCAA | 0.156 |
| ATATTCAG | 0.294 |
| CCGGCCCC | -0.349 |
| AACTTGAG | -0.147 |
| CTCTTAAA | 0.225 |

Block 2 — method: RNA Bind-n-Seq; molecule type: RNA; sample: in vitro; concentration: 200 nM; setting: whole 134-nt RNA, ends assumed; with: 150 mM LiCl; reference: input library; reading: higher = stronger binding; all molecules: 7-deaza-guanosine replaces G
Target: Fragile X messenger ribonucleoprotein 1, C-terminal low-complexity region (Fmr1, Mus musculus, UniProt P35922)
All sequences stand within: GGGAGUUCUACAGUCCGACGAUC … UGGAAUUCUCGGGUGUCAAGG
| Strand | log2 enrichment |
| --- | --- |
| GCAGGAAGUAAAAACAAAUGGAAAUGCUUCGGAUAGUGGCAGGGGUGGGGGUUGCUAAGGAAAGGGUGGGAUGGGAGUGGGUAAAGAGUU | 1.34 |
| CACAGACAACACGCACCCACACAGACACAGAGGGAAGGGGUUAGGAUGGGGACAGGGUGCACAGCAGGGCGGGGUAGGACCCCAGCCCCU | -0.823 |
| AAUAACUGACGCUGCAUUUAAUUUUUUUGCCAGUUUAAAAUGUUUGUGUGUUUUUAUAGAUGAUUUUAACUGGUACAUAUUUUGAGUUAA | -3.36 |
| UUUAGCCUGUGGAAUGAUAGCAGUAGGGUCCUGCAAUGGAGAUGUAACUUCCACUAUCCUUCAGACCAUCAUGGAGAAGUCAGAGACUGA | -0.804 |
| AGUCCUGUGCUACACAUCGUAUGUACCGAAUCGGGCCCCGGGGCCCCGGCCCCGGGGAAAGUAUUAUGUUACGCCGUUCGGAUCUGCACU | -3.5 |
| CAUCAAAAUAGCUACAAACCAUACUAAAUUAUUCCAUUUGCAACUUAUCCCCAACAGGUAUGUUCUAAAAAUAGUUUUUUUUUGUCAUUU | -0.535 |

Block 3 — method: protein-binding microarray; molecule type: double-stranded DNA, one strand shown; sample: in vitro; concentration: 2540 nM top; setting: 60-bp whole probe; with: salmon DNA 0.4 mg/ml; reference: random background probes; reading: higher = stronger binding; all sequences stand within: GCCTAGCAC … GTCTTGATTCGCTTGACGCTGCTG
Target: Interferon regulatory factor 3, full length, phosphomimetic (IRF3, Homo sapiens, UniProt Q14653, residues 1-427, S386D/S396D/S398D/S402D/T404D/S405D)
Target sequence (chain): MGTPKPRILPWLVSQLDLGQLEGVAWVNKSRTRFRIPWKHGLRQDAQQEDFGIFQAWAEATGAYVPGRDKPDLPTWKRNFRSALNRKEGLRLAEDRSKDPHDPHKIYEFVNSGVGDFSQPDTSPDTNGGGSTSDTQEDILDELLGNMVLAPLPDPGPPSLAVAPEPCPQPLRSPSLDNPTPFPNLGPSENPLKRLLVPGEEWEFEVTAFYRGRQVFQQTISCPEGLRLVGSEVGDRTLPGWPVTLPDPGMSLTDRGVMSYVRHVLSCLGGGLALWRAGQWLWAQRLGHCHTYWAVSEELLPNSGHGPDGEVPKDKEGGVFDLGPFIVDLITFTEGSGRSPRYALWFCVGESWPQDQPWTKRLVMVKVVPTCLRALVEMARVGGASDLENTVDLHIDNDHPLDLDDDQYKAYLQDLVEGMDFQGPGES
| Strand | fitted relative affinity |
| --- | --- |
| TTAGGTTTCCTTTCCCTATAGTGCTAG | 10.8 z-score |
| GACGGACGGGGACTGGGGACGTGCTAG | -0.928 z-score |
| GACGGACTAGGTTTCGGGACGTGCTAG | 2.24 z-score |
| GACGCACTGGACTTTCGGGACGTGCTA | 0.0689 z-score |
| TTAGGTCTCCTTTTTCTTTAGTGCTAG | 4.7 z-score |
| GACGGTTCCGCTTTCGGGACGTGCTAG | 4.09 z-score |
| TTAGATTTCAGTCCCGATTAGTGCTAG | 1.04 z-score |
| GACGGTTTCCTTTTCCTTACGTGCTAG | 11.3 z-score |
| GACCAACTGAGACTGGAGACGTGCTAG | -0.125 z-score |
| TTAGATCTCCTACTGCTTTAGTGCTAG | 0.221 z-score |
| GACGATATCAGACTGGATACGTGCTAG | 0.368 z-score |
| GACGGACTGGCCTATCGGGACGTGCTA | -0.774 z-score |
| TTAGCTTTCGGACTGGGTTAGTGCTAG | 1.5 z-score |
| TTAGAACTGGGGACTGGATTAGTGCTA | -0.8 z-score |

Block 4 — method: RNA Bind-n-Seq; molecule type: RNA; sample: in vitro; concentration: 90 pmol; setting: 4-mer, random 30-nt RNA, single round; with: 3 µM DMDA-PatA, 2 mM ADP, 2 mM phosphate; reference: input library; reading: higher = stronger binding
Target: Eukaryotic initiation factor 4A-I (EIF4A1, Homo sapiens, UniProt P60842, residues 1-406, full length assumed)
Sequence of UniProt P60842 (whole entry, looked up): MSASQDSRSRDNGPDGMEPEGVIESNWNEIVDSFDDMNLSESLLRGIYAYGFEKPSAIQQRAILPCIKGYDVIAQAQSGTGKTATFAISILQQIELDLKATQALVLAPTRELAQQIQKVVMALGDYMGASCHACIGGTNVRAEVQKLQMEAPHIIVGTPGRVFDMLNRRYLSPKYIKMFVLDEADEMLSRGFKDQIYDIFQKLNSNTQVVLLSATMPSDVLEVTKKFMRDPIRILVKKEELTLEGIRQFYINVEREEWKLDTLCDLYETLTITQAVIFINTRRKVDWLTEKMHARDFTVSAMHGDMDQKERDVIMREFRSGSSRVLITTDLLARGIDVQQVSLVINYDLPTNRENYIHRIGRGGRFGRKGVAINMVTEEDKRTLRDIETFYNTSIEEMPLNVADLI
| Strand | 4-mer enrichment [fold] |
| --- | --- |
| CAGC | 0.916 |
| GGUG | 1.83 |
| AUUU | 1.06 |
| GCGG | 1.53 |
| CGCC | 0.639 |
| CCCC | 0.845 |
| AGUA | 1.1 |
| AACA | 0.847 |
| GAGC | 1.12 |
| UUGC | 0.805 |
| AGCU | 0.577 |
| AAAA | 1.18 |

Block 5 — method: protein-binding microarray; molecule type: double-stranded DNA, one strand shown; sample: in vitro; concentration: 0.8 µM; setting: whole 60-bp probe, no competitor; reading: higher = stronger binding; all sequences stand within: … GTCTTGATTCGCTTGACGCTGCTG
Target: Centromere-binding protein 1, full length, N-terminal tag (CBF1, Saccharomyces cerevisiae, UniProt P17106, residues 1-351)
Sequence of UniProt P17106 (whole entry, looked up): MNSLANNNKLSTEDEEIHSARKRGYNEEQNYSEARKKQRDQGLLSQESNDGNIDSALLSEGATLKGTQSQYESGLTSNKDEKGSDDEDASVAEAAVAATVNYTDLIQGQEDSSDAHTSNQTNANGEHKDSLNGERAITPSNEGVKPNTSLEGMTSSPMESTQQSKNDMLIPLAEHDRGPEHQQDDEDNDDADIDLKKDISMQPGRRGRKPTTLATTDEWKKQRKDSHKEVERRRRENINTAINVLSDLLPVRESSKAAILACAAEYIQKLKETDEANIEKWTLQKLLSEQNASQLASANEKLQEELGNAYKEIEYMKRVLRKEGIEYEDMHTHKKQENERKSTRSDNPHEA
| Strand | fluorescence intensity |
| --- | --- |
| CTAGAACCTAGCAAGGACGTCACCTGGACTCCTTTC | 858 a.u. |
| CTAAGTGCGGCTTTTCATCAGACGTGGAATGTCTTC | 543 a.u. |
| GAAGAACGATACGCCCTCGTGTATATACAGTATTAG | 550 a.u. |
| GAACTCAATTGGAGTCACGCTGCCGTGAGCATCTAG | 1300 a.u. |
| CCTAACTACTATAATCATGTGATATAGCTTCGTACA | 3550 a.u. |
| CTAGTATTGATAATTAACGTGTCTATGTGATGCTTC | 539 a.u. |
| TGTACGAAGCTATTACAGGAGATTATAGTAGTTAGG | 499 a.u. |
| CTAAAGGTTTGACAGCACGACTATGCAGTTTTCTTC | 505 a.u. |
| GAATATTCGGATGTGCATATCACGTTCGGATCTTAG | 846 a.u. |
| CTACAATACGTAAACAACGTGCGAAAATATCTATTC | 609 a.u. |
| CTAGGCTTAGATTTTCATGTGAAAAGATAATGTTTC | 533 a.u. |
| GAAACTATGCAATGTCACACGCCCCTTTTCCGGTAG | 629 a.u. |

Block 6 — method: RNA Bind-n-Seq; molecule type: RNA; sample: in vitro; concentration: 365 nM; reference: no-protein control; reading: higher = stronger binding
Target: RNA binding protein fox-1 homolog 2, RRM domain, GST-SBP tag (RBFOX2, Homo sapiens, UniProt O43251-10, residues 100-194)
Setting: natural RNA segment, single round, ends assumed
All sequences stand within: GGGAGUUCUACAGUCCGACGAUC … UGGAAUUCUCGGGUGCCAA
Construct (chain): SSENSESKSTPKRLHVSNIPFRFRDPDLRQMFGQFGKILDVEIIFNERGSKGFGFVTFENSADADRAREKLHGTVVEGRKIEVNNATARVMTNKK
| Strand | RBNS enrichment (R) |
| --- | --- |
| UGCCAAGGCUCUUGGCACAGGACUCACAUCUGGGCCACUCAGCUUGACCGAAGGCUGUGUGUGAAAGGGGAGAAAGACGAGACUUCCAGGCAGGGCUAUUCUUUUUAUUU | 0.319 |
| ACCUCAGGAAAACUGUGCCCUCCGCCGGCUACCUUAGCUUAGCGUGUCAGCGGGCGCCACAGCGGAUCAGCGGUUCCGUGUUCACUUUUGUUGUACAAUAUAUGACACAG | 0.174 |
| CACAGGACCUGUCCCUGUGAGCGCCUCGGUGGUGCCAAGCCUGCAGGGAGUGGGAGCCGGGUGGACAUCUGAGGCUGGGGCCAGUGUACCAGGGCAGCCCCUGAGUCCAC | 0.333 |
| UGUAUAGAAAAUUCUUGAGAAGUAACUGUCCGCUAGAAGUCUGUCCAAAUUUAAAAUGUGUGCCAUAUUCUGGUUCUUGAAAAUAAGAUUCCAGAGCUCUUUGAUCGCUU | 0.867 |
| UUCCCUUUAGAAGCUUGAAGUUUGAUACUAUUGCUUUCCCCAUUAUAAGGAUUAUACAGUAUUAAUUAAUUAUAAGGCCCAAAGUUUGUUUUGGCAAAUAAAGUAUUAUU | 0.881 |
| CAACUGUAUCACUGAGGUAACUCCUCAGUGUUGGGUCCAUUACAGCCUUGGAGCAAAGUUGACCACCACCUUGUGUGGAUCAAGAAGAGAAGAAACUACUUUGGAGUUUU | 0.263 |
| UGAGAGGGAGACGGUAGGCCUUACCACUCAGACCUGGACGUAUAAGUGCUCACUUUUCCAACACAUCACAGCGAUAGUCCUUAUUGCUAAAGGACUUGGCUUCCCUCGGA | 0.255 |
| UUCAGGGGCUGCCCGCUCCCAGUGUCUUCCUGUGGGGGAAGAGCACAGCCCUCCCGCCCCUUCCCCGAGGGAUGAUGCCACACCAAGCUGUGCCACCCUGGGCUCUGUGG | 0.444 |
| CAUAGAGCGCCCCCUACUUCCCAGUUAACUCCCAGUUCUUCUCCCUGAGCUUGGUAUUUGUCAUGUGCCAACUCUGACUCUGAGGUGGGCAGUGAGGGAAGCAGCCCCGG | 0.469 |
| UUUUAAGAACAACGUGGACAUCCGGCAGCACCGGAGCCUCCAGGAGCGCGUGCGGGCAGCCCGCAUGCUGCUGGCCAGGAGCCCCCAGUGCCCUGUGGUGGUGGACACAA | 0.27 |
| ACCAUGUCCCCUCUGCACCGUGACUUGGUGAUGGCUUUGUGGACAUGGCUGAAGCUGGAUGAGAUGUCCAGGAGUGCUCAUACAGCGACUGACGUAAGGACCCCCGACCG | 0.73 |
| UUUGAGACGGAGUCUUGCUCUGUCGCCAGGCUGGAGUGUAGUGGCGCAAUCCCGGCUCACUGCAACCUCUGCCUCCCGGGUUCAAGCGAUUCUCCUGCCUCAGCCUCCCA | 0.271 |

Repeated from above (block 4):
| Strand | 4-mer enrichment [fold] |
| --- | --- |
| GGUG | 1.83 |
| AUUU | 1.06 |
| GCGG | 1.53 |
| CGCC | 0.639 |
| CCCC | 0.845 |
| AGUA | 1.1 |
